# Results from different studies.
# Every numbered part comes from another study and shows a few of its results, in no order.

# Series 1
# Target: RING finger protein unkempt homolog, zinc fingers 1-6, GST-SBP tag (UNK, Homo sapiens, UniProt Q9C0B0, residues 30-357)
# UniProt Q9C0B0, sequence (30-357, looked up): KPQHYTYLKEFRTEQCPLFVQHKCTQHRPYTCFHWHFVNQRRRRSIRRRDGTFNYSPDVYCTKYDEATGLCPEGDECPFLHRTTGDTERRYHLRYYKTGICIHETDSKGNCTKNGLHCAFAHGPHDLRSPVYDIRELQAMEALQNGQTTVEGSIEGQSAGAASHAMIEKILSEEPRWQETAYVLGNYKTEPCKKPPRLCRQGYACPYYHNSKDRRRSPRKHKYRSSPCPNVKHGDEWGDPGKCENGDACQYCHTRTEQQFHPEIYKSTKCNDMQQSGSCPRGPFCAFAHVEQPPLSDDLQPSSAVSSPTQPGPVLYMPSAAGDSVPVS
# Method: RNA Bind-n-Seq
# Molecule type: RNA
# Sample: in vitro
# Concentration: not given
# Setting: RNA with constant flanks, human and mouse sites, ends assumed
# Reference: input RNA pool
# Reading: higher = stronger binding
# Shared flanks, not repeated: GGGAGUUCUACAGUCCGACGAUC … CAACAGAGGAUUGAGCAUCA
Strand,bound/input enrichment [ratio]
CCUUUAGUGGGCAAAGAAACCUUCUGUGUUGGAGCUGCAAAAAACAAAGCUAUCAUACGUAUACUUUCUGGCAAAGGUUGUGGUUUUAGUUACACUCUGGAAAUUGAUGGGAAAAGCUUC,0.442
GCGCGCCGCCGAGCCGGCGCUAACUGGGAUCCUCGCUGGAACAGGAGGGACAGUAUUUUCUACCUUUCCAAACCGCAGACCAAGAAGCUAAGGAGAAUCUAUGUAAAUAUACUGAAAUCU,0.128
AUUAAAAAUGCUUGUCUACAAACAUCUUCCCUUGCGGUUCGUGUAAAUUCAUUAGUGUGCUUAGGAAAGAUUUUGGAAUACUUGGAUAAGUGGUUUGUACUUGAUGAUAUCCUACCCUUC,0.348
AUGCACUUUCCAUAUUUUCAAGUCAAUUUUAACUAAAAACUAAGAUAAUGUUUCCUAGUAGAGUUGCUUGAAGAUUAGACUAGACAGGGUUGAUUUAUUAUUAGCAUGUCAUUUGUACAU,0.813
UAUAAGCCCAUUCAGAGUCCCAGAGGGAGCAAGCUUCCUAUUCCAGUGAAAUCCAUCCUACCUGGAGCCAAGCCUGGCCAUAUCCUGACAAACGGAGUUAGUUCCAGUUUCCUUAACAGG,0.249
UACACUGAUGUUUAUCCAGAAAUCAUUGAACGUGCAUGCUUUGUCCUAGAGAAGAAAUUUGGGAUUCAACUGAAAGAAAUUGACAAAGAAGAACACCUGUAUAUUCUCAUCAGUACCCCC,0.349
GGACAGGGAUUUUUGUAAGUCUAUAUUUGAAAGUCCCUCCAUAUGGUAAUAUUGUGUUCAUGUUGUAUAUGUAGUGUUGUGUGAAAUAUCCAUUUUGGAUUGUGUUACUUUUUAAGAUAU,0.603
AAUACUGUUCCUGGAUAUGACUUUUUGGUGAAUUCUGUUUGGCCACAAAUAGUACAAGGAUUAGAAGAAAAGUUACCCUCGCUUUUUAAUCCUGGGAAUCCCGAUGCAUUUCAUGAGAAA,0.14

# Series 2
# Target: Prothrombin, mature alpha-thrombin (F2, Homo sapiens, UniProt P00734)
# Method: aptamer microarray, sandwich
# Molecule type: DNA with 2'F-ANA
# Sample: in vitro
# Concentration: 200 nM
# Setting: whole 15-mer aptamer, many near background
# With: Cy3 exosite-II aptamer, 400 nM
# Reading: higher = stronger binding
# Strand: GGTTGGTGTGGTTGG
Modification,mean fluorescence intensity
2'F-ANA at 3 5 6 7 8 9 11 12 13 15,140 a.u.
2'F-ANA at 1 3 6 7 8 9,323 a.u.
2'F-ANA at 2 6 7 13 14 15,120 a.u.
2'F-ANA at 1 2 3 5 7 8 10 13,45.9 a.u.
2'F-ANA at 3 10 14,558 a.u.
2'F-ANA at 1 2 3 5 7 8 11 12 14 15,46.3 a.u.
2'F-ANA at 3 6 8 11 12 13 14,528 a.u.
2'F-ANA at 5 6 9 13 14 15,108 a.u.
2'F-ANA at 1 2 7 8 9 10 12 14 15,48.9 a.u.
2'F-ANA at 1 3 4 6 7 8 11 13 14,70.3 a.u.
2'F-ANA at 1 3 6 7 13 14,80.9 a.u.
2'F-ANA at 3 5 6 9 11 12 13,198 a.u.
2'F-ANA at 3 10 11 13 14,512 a.u.
2'F-ANA at 2 5 8 9 10 13,45.4 a.u.
2'F-ANA at 1 5 6 7 10 11 12 15,50.5 a.u.
2'F-ANA at 1 6 9 13 14 15,50.8 a.u.
2'F-ANA at 1 2 5 6 7 8 10 11 15,58.5 a.u.
2'F-ANA at 1 2 3 4 8 13 15,157 a.u.
2'F-ANA at 3 4 5 10 11 14 15,93.1 a.u.
2'F-ANA at 4 5 6 7 9 10 12 15,54.5 a.u.
2'F-ANA at 2 4 6 7 9 12,553 a.u.

# Series 3
# Target: RNA binding protein fox-1 homolog 2, RRM domain, GST-SBP tag (RBFOX2, Homo sapiens, UniProt O43251-10, residues 100-194)
# Method: RNA Bind-n-Seq
# Molecule type: RNA
# Sample: in vitro
# Concentration: 365 nM
# Setting: natural RNA segment, single round, ends assumed
# Reference: no-protein control
# Reading: higher = stronger binding
# Shared flanks, not repeated: GGGAGUUCUACAGUCCGACGAUC … UGGAAUUCUCGGGUGCCAA
# Residues (chain): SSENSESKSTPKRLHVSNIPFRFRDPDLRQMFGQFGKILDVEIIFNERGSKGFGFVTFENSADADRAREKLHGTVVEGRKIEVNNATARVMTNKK
Strand,RBNS enrichment (R)
AGCACACACGCCUCAUUCUCUGCCCUCACCCACUGCUCACCUAGAGCAUCGCUGAGCGUUAGACAAAGUGUUACACAGAAUGAUUAAAACUUUCAGACUUCUACCUAUGC,0.656
CUCUUUUUCUCAUUGUCAUUUGUUGGCUUUAUUAGGGCUGUCUUACAGGAUCAUGUUGGCAUUUACUAUCAUGUCUUUAUCAUAAACCAUGUUUGUUUGAGGUAGAAGAA,0.52
UGAUGAAGUGAAAAUGUAUAUCUGACUAGUGGGAAACUUCAUGGGUUUCCUCAUCUGUCAUGUCGAUGAUUAUAUAUGGAUACAUUUACAAAAAUAAAAAGCGGGAAUUU,0.694
UGGUUCCAUCCAUCCCCACAACAGCCUGCCAAUCGAAGCCCGUCCCUGCAUCCAGGAUGGUACCAGCUCCCGCCCCUCGCCCCCCACCUCCACAGGUGCCUUAAAGGGCC,7.1
CAAGGGGACAGCAAGAGGACCCAGAGCAGGGAAAGGGGUCGGGGAGUCACACAACCAAAGGUAGACUCAGACCAGUUCAGUGCUCCUGGUGGCCAUAGGGACCAGAAAGC,0.374
UGUUGGUGGGGAAAGGUGUCUUUCUUUCUGCCCCUUCCCCUUAAAUAAUUGUGUUCAUUUUUGUUUUGUUUCCUUGUGUACUCCAGCAUUGGUUAUAGUCAUGGGAAAGG,0.887
AUGUACCAACAGAAAUAUUAUUGUAAGAUGCCUUUCUUGUAUAAGAUAUGCCAAUAUUUGCUUUAAAUAUCAUAUCACUGUAUCUUCUCAGUCAUUUCUGAAUCUUUCCA,0.318
ACACUGAUGGCUGACAGUGUGUGCGUCCUUCACGCCGGUGUGCAACGUACGCAGUGUUUACUCAGUGUGGCUCCCGCCUCAGACUGAAUUAAAGUAUUACUAUAGCAUGC,3.95

# Series 4
# Target: Sal-like protein 4, full length isoform A (SALL4, Homo sapiens, UniProt Q9UJQ4, residues 1-1053)
# UniProt Q9UJQ4, sequence (whole entry, looked up): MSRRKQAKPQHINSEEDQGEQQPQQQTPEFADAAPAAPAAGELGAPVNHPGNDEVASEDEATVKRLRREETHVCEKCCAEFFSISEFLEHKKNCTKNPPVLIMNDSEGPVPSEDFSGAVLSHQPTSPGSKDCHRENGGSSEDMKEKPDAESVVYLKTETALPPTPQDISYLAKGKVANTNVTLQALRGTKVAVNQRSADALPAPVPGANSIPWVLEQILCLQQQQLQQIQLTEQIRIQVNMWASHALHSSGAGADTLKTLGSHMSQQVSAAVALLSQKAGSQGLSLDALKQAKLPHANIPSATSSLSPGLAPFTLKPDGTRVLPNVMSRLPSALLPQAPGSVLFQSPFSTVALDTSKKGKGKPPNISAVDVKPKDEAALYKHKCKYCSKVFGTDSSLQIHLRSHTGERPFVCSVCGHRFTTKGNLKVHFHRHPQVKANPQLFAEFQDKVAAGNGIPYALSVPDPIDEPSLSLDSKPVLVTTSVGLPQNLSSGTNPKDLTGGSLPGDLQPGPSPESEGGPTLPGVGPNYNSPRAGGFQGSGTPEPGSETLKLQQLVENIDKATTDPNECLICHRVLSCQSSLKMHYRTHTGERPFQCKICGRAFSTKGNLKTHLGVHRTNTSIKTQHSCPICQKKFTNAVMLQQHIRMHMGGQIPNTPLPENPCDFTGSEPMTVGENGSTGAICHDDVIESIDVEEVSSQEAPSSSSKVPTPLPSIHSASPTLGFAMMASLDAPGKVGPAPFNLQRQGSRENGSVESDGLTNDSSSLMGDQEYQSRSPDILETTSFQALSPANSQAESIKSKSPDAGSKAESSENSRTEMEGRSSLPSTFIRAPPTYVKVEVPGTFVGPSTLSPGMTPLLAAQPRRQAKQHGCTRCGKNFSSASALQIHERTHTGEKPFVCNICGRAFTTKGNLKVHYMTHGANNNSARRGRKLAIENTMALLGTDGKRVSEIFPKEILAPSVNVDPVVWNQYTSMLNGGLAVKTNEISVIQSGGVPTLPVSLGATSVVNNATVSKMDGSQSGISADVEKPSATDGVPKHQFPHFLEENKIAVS
# Method: universal PBM
# Molecule type: double-stranded DNA, one strand shown
# Sample: in vitro
# Concentration: 600 nM
# Setting: 8-mer, flanks averaged, mean of replicates
# Reading: higher = stronger binding
Strand,E-score
CCAAATAG,0.0378
CCATTTAA,0.231
AAATCTCT,0.183
GAAGGGGC,-0.289
AAACGCAC,0.0415
AACCTCAT,0.0921
CTTTGGTC,0.00976
CGAGATGA,-0.108
GGCAGCCA,-0.115
TTCGGCAA,0.00215
TCTCCCAA,-0.016
AGGGCTAG,-0.103
GATTCTAA,0.139
CTGCACCC,-0.275
ATTATGAG,0.327
ATCCATTA,0.167
AAGATCAG,-0.153
ATACCCAA,0.00686
AATTGCTA,0.254
TAGGCCAA,-0.00532

# Some of these lines once more (series 4):
Strand,E-score
CCAAATAG,0.0378
GAAGGGGC,-0.289
CCATTTAA,0.231
TTCGGCAA,0.00215
AGGGCTAG,-0.103
CTGCACCC,-0.275
GATTCTAA,0.139
